# Assay results from different studies.
# Lines come from different studies, so protocols differ. Values joined by “and” are separate records of one study, mostly repeats; a detail may differ. ± gives the spread as reported.
Compound,target or system,assay,system,conditions,how to read,measurement,value
Cc1[nH]c(/C=C2\C(=O)Nc3ccc(S(=O)(=O)N(C)c4cccc(Cl)c4)cc32)c(C)c1C(=O)N1CCN(C)CC1,Rh36 (embryonal rhabdomyosarcoma),cell growth,,3 days,,IC50,4320 ± 1180 nM
COc1cc(C(=O)NS(=O)(=O)c2ccccc2C)ccc1Cc1cn(C)c2ccc(NC(=O)OC3CCCC3)cc12,HCT116 wild-type cells,"native VRAC current, inhibitor, whole-cell patch clamp",,"pH 6.0, at +100 mV",,IC50,5600 nM
CN1CC(Oc2cnc(C#N)cc2-c2ccn3nc(NC(=O)C4CC4)cc3c2)C1,human T cells,"T cell activation, measured: IL-2",,added: anti-CD3/anti-CD28,,IC50,~5700 nM
O=C(O)c1ccc(O)cc1,T47D breast cancer,"cell viability, MTT",DMEM with 10% FBS,48 h,,IC50,> 200000 nM
CC1(C)COc2ccc(F)cc2CN2c3nc4c(cnn4cc3OC[C@H]2C(F)F)C(=O)N1,NCI-H2228 (EML4-ALK variant 3),cell viability,,,,IC50,5.48 nM
N#Cc1ccc(C[C@H](NC(=O)c2cc3cc(F)ccc3[nH]2)C(=O)N2CCc3ccccc32)cc1,human neutrophils,"calcium mobilization, desensitization",,added: standard agonist,,IC50,2600 ± 600 nM
CC#CC(=O)N1CCC[C@H]1c1nc(-c2ccc(C(=O)Nc3ccccn3)cc2)c2c(N)nccn12,"washed human platelets, healthy donors","ATP secretion, inhibitor, luminescence",,added: CRP 10 µg/mL,,IC50,6370 nM
N#Cc1ccc(C[C@H](Nc2nnc(-c3cccc(F)c3)o2)C(=O)N2CCc3ccccc32)cc1,human neutrophils,"calcium mobilization, desensitization",,added: standard agonist,,IC50,> 50000 nM
C=C1C(=O)O[C@H]2[C@H]1CC/C(C)=C/CC[C@@]1(C)O[C@@H]21,Toxoplasma gondii,parasite growth,"HFF, bradyzoite, alkaline-induced",,,EC50,1640 nM
N#Cc1ccc(C[C@@H](Nc2c(Nc3ccc(F)cc3)c(=O)c2=O)C(=O)N2CCc3ccccc32)cc1,human neutrophils,"calcium mobilization, desensitization",,added: standard agonist,,IC50,> 50000 nM
Cc1c(C(=O)O)ccc2c3n(nc12)[C@@H]1[C@H](C3)N(CC2CC2)[C@@]2(C(=O)Nc3cc(Cl)ccc32)[C@H]1c1cccc(Cl)c1F,highly sensitive cancer cell lines,"cell viability, PRISM pooled screen",,"median, sensitivity above 0.5",,IC50,107 nM
CC(=O)O[C@H]1C(=O)[C@@]2(C)[C@H]([C@H](OC(=O)c3ccccc3)[C@]3(O)C[C@H](OC(=O)[C@H](O)[C@@H](NC(=O)c4ccccc4)c4ccccc4)C(C)=C1C3(C)C)[C@]1(OC(C)=O)CO[C@@H]1C[C@@H]2O,CHP-212 parental,"cell viability, SRB",,,,IC50,36.1 nM and 26 nM and 43.1 nM
COc1cc(N2CCC(N3CCN(C)CC3)CC2)ccc1Nc1ncc(Cl)c(Nc2ccccc2P(C)(C)=O)n1,Ba/F3 EML4-ALK variant 1 S1206Y,cell viability,,,,IC50,88.7 nM
COc1cc(N2CCC(N3CCN(C)CC3)CC2)ccc1Nc1ncc(Cl)c(Nc2ccccc2S(=O)(=O)C(C)C)n1,Rh36 (embryonal rhabdomyosarcoma),cell growth,,3 days,,IC50,360 ± 60 nM
CCCCCN1C[C@H](O)[C@@H](O)[C@H](O)[C@@H]1CO,Sandhoff fibroblasts,"lysosomal accumulation, LysoTracker staining",,8 days,,IC50,700 nM
CNc1ncc2cc(-c3cc(NC(=O)NCCC(C)(C)C)c(F)cc3C)c(C)nc2n1,primary keratinocytes,"ERK phosphorylation, Western blot",,1 h,,IC50,2140 nM
Cc1cc(Nc2ncc(Cl)c(Nc3ccccc3S(=O)(=O)C(C)C)n2)c(OC(C)C)cc1C1CCNCC1,NCI-H2228 (EML4-ALK variant 3),cell viability,,,,IC50,52 nM
CCCCN1C[C@H](O)[C@@H](O)[C@@H](O)[C@H]1CO,sample D patient fibroblasts,"Gb3 level lowering, LC-MS/MS, measured: Gb3 d18:1/22:0",,216 h,,IC50,11500 nM
C=CC(=O)N1C[C@@H](n2nc(C#Cc3c(F)cc4c(ncn4C4CC4)c3F)c(C(N)=O)c2NC)C[C@@H]1COC,"CC-LP-1 (FGFR1, FGF20 overexpression)","cell viability, MTT",,3 days,,IC50,~6 nM
OC(CCN1CCCCC1)(c1ccccc1)C1CC2C=CC1C2 (stereo not drawn),Toxoplasma gondii,parasite growth,"HFF, bradyzoite, alkaline-induced",,,EC50,307000 nM
COc1ccc(F)cc1C(=O)NCc1ccc(-c2nn([C@@H](C)C(F)(F)F)c(N)c2C(N)=O)cc1,Rec1,measured: EGF,,24 h,,IC50,> 100 nM
CC(=O)c1n[nH]c2ccc(-c3cnc4ccc(N(C)C5CCOCC5)nn34)cc12,primary neutrophils,IL6 production,,added: LPS,,IC50,570 ± 80 nM
C=CC(=O)N1CCC[C@@H](n2nc(-c3ccc(Oc4ccccc4)cc3)c3c(N)ncnc32)C1,"washed human platelets, healthy donors","platelet aggregation, inhibitor, light transmission aggregometry",,"5 min preincubation, added: CRP 10 µg/mL",,IC50,1190 nM
Oc1ccccc1-c1n[nH]cc1-c1ccnc2ccccc12,FUN31 (Candida albicans),"kinase binding, MIB/MS competition",Candida albicans lysate,1 µM,baseline: DMSO,log2 fold change,-0.15
NS(=O)(=O)OC[C@@H]1C[C@@H](n2ccc3c(N[C@H]4CCc5ccccc54)ncnc32)C[C@@H]1O,CHP-212,"cell viability, SRB",,mean of replicates,,IC50,476 nM
N#Cc1ccc(C[C@H](NC(=O)c2cc3cc([N+](=O)[O-])ccc3[nH]2)C(=O)N2CCc3ccccc32)cc1,human neutrophils,"calcium mobilization, desensitization",,added: standard agonist,,IC50,> 50000 nM
C[C@H]1Oc2cc(cnc2N)-c2c(nn(C)c2C#N)CN(C)C(=O)c2ccc(F)cc21,Ba/F3 EML4-ALK variant 1,cell viability,,,,IC50,3.5 nM
C[C@H](Nc1ccc2c(c1)OCCn1cc(N3C(=O)OC[C@H]3C(F)F)nc1-2)C(N)=O,MDA-MB-453,"growth rate inhibition, CellTiter-Glo",,120 h,,IC50,54.4 nM
N#Cc1ccc(C[C@@H](NC(=O)c2cc3ccc(F)cc3[nH]2)C(=O)N2CCc3ccccc32)cc1,human neutrophils,"calcium mobilization, desensitization",,added: standard agonist,,IC50,> 50000 nM
N#Cc1c(Oc2ccc(F)c(NC(=O)Cc3cccc(C(F)(F)F)c3)c2)ccc2nc(NC(=O)C3CC3)sc12,primary keratinocytes,"ERK phosphorylation, inhibitor, Western blot, measured: p-ERK/total ERK",,1 h,,IC50,6760 nM
CCC(=O)N1CCC(COCC(=O)N2CCN(c3nc(-c4cnc(N)nc4C(F)F)nc(N4CCOC[C@@H]4C)n3)CC2)CC1,MDA-MB-453,"western blot, measured: phospho-S6 Ser235/Ser236",,2 h,,IC50,607 nM
NC(=O)NOCCCCCCCCCCCCCC[P+](c1ccccc1)(c1ccccc1)c1ccccc1,mouse myeloid-derived suppressor cells,"suppressive neutrophil differentiation, flow cytometry",,,,IC50,940 ± 990 nM
O=c1c(O[C@@H]2O[C@H](CO)[C@@H](O)[C@H](O)[C@H]2O)c(-c2ccc(O)c(O)c2)oc2cc(O)cc(O)c12,SV-HUC-1,"cell growth, CellTiter-Glo",,72 h,,IC50,12600 nM
C[C@H]1O[C@@H](n2cc(F)c(=O)[nH]c2=O)[C@H](O)[C@@H]1O,7702 normal human cells,"cell growth, CCK-8",,48 h,,IC50,> 50000 nM
N#Cc1ccc(C[C@H](Nc2nnc(-c3ccc(Br)cc3)s2)C(=O)N2CCc3ccccc32)cc1,human neutrophils,"calcium mobilization, desensitization",,added: standard agonist,,IC50,> 50000 nM
C[C@H](Nc1ccc2c(c1)OCCn1cc(N3C(=O)OC[C@H]3C(F)F)nc1-2)C(N)=O,MDA-MB-453,"western blot, measured: phospho-PKB/Akt Ser473",,2 h,,IC50,4.7 nM
O=C(O)/C=C/c1ccccc1,T47D breast cancer,"cell viability, MTT",DMEM with 10% FBS,48 h,,IC50,> 200000 nM
CC#Cc1cncc(-c2ccc3c(c2)[C@@]2(N=C(C)C(N)=N2)[C@]2(CC[C@H](OC)CC2)C3)c1,N2a,Aβ40 production,,,,IC50,0.29 nM
C=CC(=O)c1cccnc1Nc1cc(C(F)(F)F)ccc1OCc1ccccc1,HEK293A LATS1/2 double knockout,"TEAD reporter gene, GTIIC luciferase",,24 h,,IC50,60800 nM

# Excerpt of the above:
Compound,target or system,assay,system,conditions,how to read,measurement,value
N#Cc1ccc(C[C@H](NC(=O)c2cc3cc(F)ccc3[nH]2)C(=O)N2CCc3ccccc32)cc1,human neutrophils,"calcium mobilization, desensitization",,added: standard agonist,,IC50,2600 ± 600 nM
CC#CC(=O)N1CCC[C@H]1c1nc(-c2ccc(C(=O)Nc3ccccn3)cc2)c2c(N)nccn12,"washed human platelets, healthy donors","ATP secretion, inhibitor, luminescence",,added: CRP 10 µg/mL,,IC50,6370 nM
N#Cc1ccc(C[C@H](Nc2nnc(-c3cccc(F)c3)o2)C(=O)N2CCc3ccccc32)cc1,human neutrophils,"calcium mobilization, desensitization",,added: standard agonist,,IC50,> 50000 nM
C=C1C(=O)O[C@H]2[C@H]1CC/C(C)=C/CC[C@@]1(C)O[C@@H]21,Toxoplasma gondii,parasite growth,"HFF, bradyzoite, alkaline-induced",,,EC50,1640 nM
N#Cc1ccc(C[C@@H](Nc2c(Nc3ccc(F)cc3)c(=O)c2=O)C(=O)N2CCc3ccccc32)cc1,human neutrophils,"calcium mobilization, desensitization",,added: standard agonist,,IC50,> 50000 nM
Cc1c(C(=O)O)ccc2c3n(nc12)[C@@H]1[C@H](C3)N(CC2CC2)[C@@]2(C(=O)Nc3cc(Cl)ccc32)[C@H]1c1cccc(Cl)c1F,highly sensitive cancer cell lines,"cell viability, PRISM pooled screen",,"median, sensitivity above 0.5",,IC50,107 nM
